Published values from different studies.
Lines come from different studies, so protocols differ. Values joined by “and” are separate records of one study, mostly repeats; a detail may differ. ± gives the spread as reported.

Compound	target or system	assay	test system	setting	quantity	value
O=C1NC2(CC2)COc2ncc(F)cc2[C@H]2COCCN2c2ccn3ncc1c3n2	–	–	Sprague-Dawley rat, female, spleen	oral, 20 mg/kg/day, 4 weeks dosing, end of recovery	organ-to-brain weight ratio	38.2 ± 2.61%
Cc1ccc(N2CC3CCC(C2)N3C)cc1C(=O)N[C@H](C)c1cc(-c2cnn(C)c2)nc2ccccc12	African green monkey cells	–	–	15.62 µM	viability	91.2%
CC(C)=CCC/C(C)=C/CCn1cc(CC(P(=O)(O)O)P(=O)(O)O)nn1	–	–	CD-1 mouse, plasma	intravenous, 0.5 mg/kg, single dose	half-life	3.21 days
CCCCCCCCCCCCCCCC(=O)N[C@@H](CCC(=O)NCCCC[C@H](NC(=O)[C@H](CC(=O)O)NC(=O)[C@H](CO)NC(=O)[C@@H](NC(=O)[C@H](Cc1ccccc1)NC(=O)[C@@H](NC(=O)CNC(=O)[C@H](CCC(N)=O)NC(=O)[C@H](C)NC(=O)[C@@H](Cc1ccc(O)cc1)NC(C)=O)[C@@H](C)O)[C@@H](C)O)C(=O)N[C@@H](CO)C(=O)N[C@@H](CCCCN)C(=O)N[C@@H](Cc1ccc(O)cc1)C(=O)N[C@@H](CC(C)C)C(=O)N[C@@H](CC(=O)O)C(=O)N[C@@H](CCC(=O)O)C(=O)N[C@@H](CCCNC(=N)N)C(=O)N[C@@H](C)C(=O)N[C@@H](C)C(=O)N[C@@H](CCC(N)=O)C(=O)N[C@@H](CC(=O)O)C(=O)N[C@@H](Cc1ccccc1)C(=O)N[C@H](C(=O)N[C@@H](CCC(N)=O)C(=O)N[C@@H](Cc1c[nH]c2ccccc12)C(=O)N[C@@H](CC(C)C)C(=O)N[C@@H](CC(C)C)C(=O)N[C@@H](CCC(=O)O)C(=O)NCC(=O)NCC(=O)N1CCC[C@H]1C(=O)N[C@@H](CO)C(=O)N[C@@H](CO)C(=O)NCC(=O)N[C@@H](C)C(=O)N1CCC[C@H]1C(=O)N1CCC[C@H]1C(=O)N1CCC[C@H]1C(=O)N[C@@H](CO)C(N)=O)C(C)C)C(=O)O	–	–	cynomolgus monkey, plasma	intravenous, 0.0031 mg/kg	central volume of distribution	0.0305 to 0.0321 L/kg
Oc1c(Br)cc(Br)c2nc3ccccc3nc12	–	haemolysis	–	200 µM	haemolysis	≤ 1%
CC[C@H](C)[C@H](NC(=O)[C@H](C)NC(=O)[C@H](C)NC(=O)[C@H](CCC(N)=O)NC(=O)CNC(=O)[C@H](CC(C)C)NC(=O)[C@H](Cc1c[nH]cn1)NC(=O)[C@H](CCCCN)NC(=O)[C@H](C)NC(=O)CNC(=O)[C@H](CCCCN)NC(=O)[C@H](CCCNC(=N)N)NC(=O)[C@H](CC(C)C)NC(=O)[C@H](Cc1c[nH]c2ccccc12)NC(=O)[C@H](CCCCN)NC(=O)[C@H](CCCCN)NC(=O)[C@H](Cc1c[nH]c2ccccc12)NC(=O)CN)C(=O)N[C@@H](CCCCN)C(N)=O	–	–	zebrafish embryos 28 hpf, E3 medium	1 h	acute toxic concentration	25 µM
CSCC[C@@H]1NC(=O)[C@H](C(C)C)NC(=O)[C@H](CCCNC(=N)N)NC(=O)[C@@H]2CCCN2C(=O)CNC(=O)[C@@H](NC(=O)CNC(=O)[C@H](CO)NC(=O)CNC(=O)[C@H](CO)NC(=S)Nc2ccc(C[C@H]3CN(CC(=O)O)CCN(CC(=O)O)CCN3CC(=O)O)cc2)CSSC[C@@H](C(N)=O)NC(=O)[C@@H]2CCCN2C(=O)CNC(=O)[C@H](CCC(=O)O)NC(=O)[C@H](CC(=O)O)NC(=O)[C@H](CC(=O)O)NC(=O)CNC(=O)[C@H](CC(C)C)NC(=O)[C@H](Cc2c[nH]cn2)NC(=O)[C@H](CC(C)C)NC(=O)CNC(=O)[C@H](Cc2c[nH]cn2)NC1=O [copper-64 labelled]	–	dynamic PET	CD rat, myocardial infarction, infarct myocardium fibrosis	intravenous, 18.5 MBq	clearance half-life	24.1 ± 1.5 min
CCc1nn(C)c2nc(-c3ccc(C(=O)O)cc3)nc(NCc3ccccc3)c12	–	–	male CD-1 mouse, plasma	oral, 10 mg/kg, 30 min	concentration	1430 ng/mL
Cc1ccc(OCCN(C)C)cc1C(=O)N[C@H](C)c1cc(-c2cccnc2N2CCCC2)nc2ccccc12	Vero E6	–	–	3.906 µM	viability	96.8% and 109%
CC(C)[C@@H]1NC(=O)CNC(=O)[C@H](CC(N)=O)NC(=O)[C@H](CCCNC(=N)N)NC(=O)[C@H](Cc2ccc(O)cc2)NC(=O)[C@H](C(C)C)NC(=O)[C@@H](NC(=O)[C@@H](NC(=O)[C@H](CC(N)=O)NC(=O)[C@H](Cc2c[nH]c3ccccc23)NC(=O)[C@H](C)NC(=O)[C@H](Cc2ccccc2)NC(=O)CNC(=O)[C@H](CCCCN)NC(=O)[C@H](Cc2ccccc2)NC(=O)[C@H](Cc2ccccc2)NC(=O)[C@H](CCCCN)NC(=O)OCC2c3ccccc3-c3ccccc32)C(C)C)CSSC[C@@H](C(=O)N[C@@H](Cc2c[nH]cn2)C(=O)N[C@@H](CCCNC(=N)N)C(=O)N[C@@H](CCCNC(=N)N)C(=O)N[C@@H](C)C(=O)N[C@@H](CC(N)=O)C(N)=O)NC(=O)[C@H](C(C)C)NC(=O)[C@H](CCCNC(=N)N)NC1=O	–	–	ICR mice, blood	intraperitoneal, 10 mg/kg, day 5	mean corpuscular haemoglobin	13.8 ± 0.17 pg
CC(C)[C@H](NC(=O)[C@@H](NC(=O)[C@H](CCCNC(=N)N)NC(=O)[C@H](CCCNC(=N)N)NC(=O)[C@H](CCCNC(=N)N)NC(=O)[C@H](CCC(N)=O)NC(=O)[C@H](CCCNC(=N)N)NC(=O)[C@H](CCCNC(=N)N)NC(=O)[C@H](CCCCN)NC(=O)[C@H](CCCCN)NC(=O)[C@H](CCCNC(=N)N)NC(=O)CN)[C@@H](C)O)C(=O)N[C@H](C(=O)N[C@@H](CO)C(=O)N1CCC[C@H]1C(=O)O)[C@@H](C)O	–	–	ICR mice, male, heart	intranasal, 5 mg/kg daily, 4 weeks	organ weight	0.232 ± 0.037 g
CC[C@H](C)[C@H](NC(=O)[C@H](Cc1ccccc1)NC(=O)[C@H](CCC(=O)O)NC(=O)[C@H](CCCNC(=N)N)NC(=O)[C@@H](NC(=O)[C@H](C)NC(=O)[C@H](CCC(=O)O)NC(=O)[C@H](CCC(=O)O)NC(=O)[C@H](CCC(=O)O)NC(=O)[C@H](CC(C)C)NC(=O)[C@H](Cc1ccc(O)cc1)NC(=O)[C@H](CCCCN)NC(=O)[C@H](CO)NC(=O)[C@H](CC(C)C)NC(=O)[C@H](CC(=O)O)NC(=O)[C@H](CO)NC(=O)[C@@H](NC(=O)[C@H](Cc1ccccc1)NC(=O)[C@@H](NC(=O)CNC(=O)[C@H](CCC(N)=O)NC(=O)[C@@H](CO)NC(=O)[C@@H](N)Cc1c[nH]cn1)[C@@H](C)O)[C@@H](C)O)C(C)C)C(=O)N[C@@H](C)C(=O)N[C@@H](Cc1c[nH]c2ccccc12)C(=O)N[C@@H](CC(C)C)C(=O)N[C@@H](CCCCN)C(=O)N[C@@H](CC(N)=O)C(=O)NCC(=O)NCC(=O)N1CCC[C@H]1C(=O)N[C@@H](CO)C(=O)N[C@@H](Cc1ccc(O)cc1)C(=O)N[C@@H](CO)C(=O)N[C@@H](CCSC)C(=O)N[C@@H](CCC(=O)O)C(=O)N[C@@H](Cc1c[nH]cn1)C(=O)N[C@@H](Cc1ccccc1)C(=O)N[C@@H](CCCNC(=N)N)C(=O)N[C@@H](Cc1c[nH]c2ccccc12)C(=O)NCC(=O)N[C@@H](CCCCN)C(=O)N1CCC[C@H]1C(=O)N[C@H](C(N)=O)C(C)C	–	–	DIO male Wistar rats, serum	dose not given, 10 weeks, fasted	ALT	30 ± 2 U/L
CC[C@H](C)[C@H](NC(=O)[C@H](CCCCN)NC(=O)CNC(=O)[C@H](CC(C)C)NC(=O)[C@H](Cc1ccccc1)NC(=O)[C@H](CCCCN)NC(=O)[C@H](CO)NC(=O)[C@H](Cc1ccccc1)NC(=O)[C@H](Cc1c[nH]c2ccccc12)NC(=O)[C@H](CCC(N)=O)NC(=O)[C@@H](NC(=O)[C@H](Cc1ccccc1)NC(=O)CCCCCNC(=O)CN1CCN(CC(=O)O)CCN(CC(=O)O)CCN(CC(=O)O)CC1)C(C)C)C(=O)N[C@@H](CCC(=O)O)C(=O)N1CCC[C@H]1C(=O)N[C@@H](CC(=O)O)C(=O)N[C@H](C(=O)N[C@@H](CO)C(=O)N[C@@H](CCC(N)=O)C(=O)N[C@H](C(=O)N[C@@H](CCC(N)=O)C(=O)N[C@@H](CC(=O)O)C(=O)N1CCC[C@H]1C(=O)N[C@@H](CC(N)=O)C(=O)N[C@@H](CC(=O)O)C(=O)N[C@@H](CCC(N)=O)C(=O)N[C@@H](Cc1ccc(O)cc1)C(=O)N[C@@H](CCC(=O)O)C(=O)N1CCC[C@H]1C(=O)N[C@@H](Cc1ccccc1)C(=O)O)C(C)C)C(C)C [copper-64 labelled]	–	dynamic PET	mouse both sexes, CT26 tumour, untreated, tumour	intravenous, 100 µCi/mouse, 570 s	SUVmean	0.86 SUV
CC[C@H](C)[C@H](NC(=O)[C@H](Cc1c[nH]c2ccccc12)NC(=O)c1ccccc1)C(=O)N[C@H](C(=O)N[C@@H](Cc1ccc(O)cc1)C(=O)N[C@@H](CCCCN)C(=O)N[C@@H](Cc1c[nH]c2ccccc12)C(=O)N1CCC[C@@H]1C(=O)N[C@@H](CCCNC(=N)N)C(=O)N[C@@H](CCCCN)C(=O)N[C@H](C(=O)N[C@H](C(=O)N[C@@H](CCCNC(=N)N)C(=O)N[C@@H](Cc1ccc(O)cc1)C(=O)N[C@@H](Cc1c[nH]c2ccccc12)C(=O)N[C@H](C(=O)NCC(=O)N[C@@H](CCCCN)C(=O)N[C@@H](CCCNC(=N)N)C(N)=O)[C@@H](C)O)C(C)C)C(C)C)C(C)C	–	circular dichroism	phosphate buffer	30 µM, pH 6.5	melting temperature	> 100 °C
CC(=O)NCCCC[C@@H]1NC(=O)[C@H](Cc2c[nH]c3c(C)cccc23)NC(=O)[C@H]([C@@H](C)O)NC(=O)[C@H](CC(N)=O)NC(=O)[C@@H](NC(C)=O)C(C)(C)SSC(C)(C)[C@@H](C(=O)N[C@@H](Cc2ccc(OCCN)cc2)C(=O)N[C@@H](Cc2ccc3ccccc3c2)C(=O)NC2(C(=O)N[C@@H](CCC(=O)O)C(=O)N[C@@H](CC(N)=O)C(=O)N[C@@H](Cc3cccnc3)C(=O)N(C)CC(N)=O)CCOCC2)NC1=O	–	equilibrium dialysis	cynomolgus monkey, plasma	1 µM	plasma protein binding	50.7 ± 0.2%

For quick reference, copied from above:
Compound	target or system	assay	test system	setting	quantity	value
CC[C@H](C)[C@H](NC(=O)[C@H](Cc1c[nH]c2ccccc12)NC(=O)c1ccccc1)C(=O)N[C@H](C(=O)N[C@@H](Cc1ccc(O)cc1)C(=O)N[C@@H](CCCCN)C(=O)N[C@@H](Cc1c[nH]c2ccccc12)C(=O)N1CCC[C@@H]1C(=O)N[C@@H](CCCNC(=N)N)C(=O)N[C@@H](CCCCN)C(=O)N[C@H](C(=O)N[C@H](C(=O)N[C@@H](CCCNC(=N)N)C(=O)N[C@@H](Cc1ccc(O)cc1)C(=O)N[C@@H](Cc1c[nH]c2ccccc12)C(=O)N[C@H](C(=O)NCC(=O)N[C@@H](CCCCN)C(=O)N[C@@H](CCCNC(=N)N)C(N)=O)[C@@H](C)O)C(C)C)C(C)C)C(C)C	–	circular dichroism	phosphate buffer	30 µM, pH 6.5	melting temperature	> 100 °C
CC(=O)NCCCC[C@@H]1NC(=O)[C@H](Cc2c[nH]c3c(C)cccc23)NC(=O)[C@H]([C@@H](C)O)NC(=O)[C@H](CC(N)=O)NC(=O)[C@@H](NC(C)=O)C(C)(C)SSC(C)(C)[C@@H](C(=O)N[C@@H](Cc2ccc(OCCN)cc2)C(=O)N[C@@H](Cc2ccc3ccccc3c2)C(=O)NC2(C(=O)N[C@@H](CCC(=O)O)C(=O)N[C@@H](CC(N)=O)C(=O)N[C@@H](Cc3cccnc3)C(=O)N(C)CC(N)=O)CCOCC2)NC1=O	–	equilibrium dialysis	cynomolgus monkey, plasma	1 µM	plasma protein binding	50.7 ± 0.2%
